Measured values collected from several papers.
Every numbered part comes from another study and shows a few of its results, in no order.
UniProt Q8IY84, sequence (whole entry, looked up): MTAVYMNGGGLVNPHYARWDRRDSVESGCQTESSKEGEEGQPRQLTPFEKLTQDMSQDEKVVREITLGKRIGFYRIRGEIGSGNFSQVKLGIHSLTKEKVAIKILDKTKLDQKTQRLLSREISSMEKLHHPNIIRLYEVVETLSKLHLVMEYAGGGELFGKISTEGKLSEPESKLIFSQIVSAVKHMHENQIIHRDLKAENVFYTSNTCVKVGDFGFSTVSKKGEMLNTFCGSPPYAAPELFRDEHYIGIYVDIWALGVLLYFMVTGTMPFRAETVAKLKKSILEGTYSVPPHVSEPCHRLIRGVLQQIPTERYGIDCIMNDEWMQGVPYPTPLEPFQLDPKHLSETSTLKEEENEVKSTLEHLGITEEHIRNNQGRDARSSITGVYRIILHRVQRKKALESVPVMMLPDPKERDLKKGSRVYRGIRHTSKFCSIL
UniProt P10721, sequence (whole entry, unmodified, looked up): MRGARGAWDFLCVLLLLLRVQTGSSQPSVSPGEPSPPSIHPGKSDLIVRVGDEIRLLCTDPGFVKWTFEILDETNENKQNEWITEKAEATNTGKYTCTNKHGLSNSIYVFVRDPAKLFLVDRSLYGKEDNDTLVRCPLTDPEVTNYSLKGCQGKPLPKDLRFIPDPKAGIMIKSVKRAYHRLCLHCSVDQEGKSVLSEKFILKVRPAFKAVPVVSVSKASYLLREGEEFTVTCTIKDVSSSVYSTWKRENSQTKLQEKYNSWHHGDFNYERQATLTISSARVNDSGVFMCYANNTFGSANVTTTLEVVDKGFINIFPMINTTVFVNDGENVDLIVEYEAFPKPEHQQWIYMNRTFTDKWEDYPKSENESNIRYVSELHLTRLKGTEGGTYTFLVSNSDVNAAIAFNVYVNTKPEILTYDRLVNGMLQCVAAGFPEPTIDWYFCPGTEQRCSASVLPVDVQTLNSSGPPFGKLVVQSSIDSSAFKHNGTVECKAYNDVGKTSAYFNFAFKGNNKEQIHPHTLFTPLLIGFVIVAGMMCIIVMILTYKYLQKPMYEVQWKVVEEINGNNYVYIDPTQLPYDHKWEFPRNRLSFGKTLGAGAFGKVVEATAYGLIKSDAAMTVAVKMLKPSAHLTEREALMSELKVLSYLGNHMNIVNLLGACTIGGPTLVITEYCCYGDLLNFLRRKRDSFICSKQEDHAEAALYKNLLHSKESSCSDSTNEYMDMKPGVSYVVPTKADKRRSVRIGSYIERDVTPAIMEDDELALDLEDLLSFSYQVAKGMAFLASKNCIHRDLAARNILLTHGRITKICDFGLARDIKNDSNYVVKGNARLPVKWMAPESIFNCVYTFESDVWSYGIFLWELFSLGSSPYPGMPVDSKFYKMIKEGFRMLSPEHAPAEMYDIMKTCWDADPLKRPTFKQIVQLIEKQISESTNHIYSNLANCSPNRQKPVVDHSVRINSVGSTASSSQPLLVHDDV
UniProt Q92630, sequence (whole entry, looked up): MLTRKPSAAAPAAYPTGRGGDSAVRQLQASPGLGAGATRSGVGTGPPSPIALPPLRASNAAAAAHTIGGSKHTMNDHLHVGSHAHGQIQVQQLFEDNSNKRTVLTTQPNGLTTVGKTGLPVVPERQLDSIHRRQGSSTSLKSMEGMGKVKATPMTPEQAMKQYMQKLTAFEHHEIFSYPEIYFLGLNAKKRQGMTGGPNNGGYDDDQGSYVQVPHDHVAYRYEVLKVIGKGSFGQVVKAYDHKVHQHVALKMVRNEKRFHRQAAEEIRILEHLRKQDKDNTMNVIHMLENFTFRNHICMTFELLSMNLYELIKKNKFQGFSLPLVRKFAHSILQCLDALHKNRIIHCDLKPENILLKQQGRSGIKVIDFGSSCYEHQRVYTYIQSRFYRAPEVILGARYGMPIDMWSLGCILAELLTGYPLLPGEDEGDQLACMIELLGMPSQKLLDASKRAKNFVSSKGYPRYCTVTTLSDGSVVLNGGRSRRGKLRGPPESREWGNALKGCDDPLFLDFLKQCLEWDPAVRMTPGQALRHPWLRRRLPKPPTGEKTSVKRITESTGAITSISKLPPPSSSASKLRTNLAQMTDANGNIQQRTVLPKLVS
UniProt O43683, sequence (whole entry, looked up): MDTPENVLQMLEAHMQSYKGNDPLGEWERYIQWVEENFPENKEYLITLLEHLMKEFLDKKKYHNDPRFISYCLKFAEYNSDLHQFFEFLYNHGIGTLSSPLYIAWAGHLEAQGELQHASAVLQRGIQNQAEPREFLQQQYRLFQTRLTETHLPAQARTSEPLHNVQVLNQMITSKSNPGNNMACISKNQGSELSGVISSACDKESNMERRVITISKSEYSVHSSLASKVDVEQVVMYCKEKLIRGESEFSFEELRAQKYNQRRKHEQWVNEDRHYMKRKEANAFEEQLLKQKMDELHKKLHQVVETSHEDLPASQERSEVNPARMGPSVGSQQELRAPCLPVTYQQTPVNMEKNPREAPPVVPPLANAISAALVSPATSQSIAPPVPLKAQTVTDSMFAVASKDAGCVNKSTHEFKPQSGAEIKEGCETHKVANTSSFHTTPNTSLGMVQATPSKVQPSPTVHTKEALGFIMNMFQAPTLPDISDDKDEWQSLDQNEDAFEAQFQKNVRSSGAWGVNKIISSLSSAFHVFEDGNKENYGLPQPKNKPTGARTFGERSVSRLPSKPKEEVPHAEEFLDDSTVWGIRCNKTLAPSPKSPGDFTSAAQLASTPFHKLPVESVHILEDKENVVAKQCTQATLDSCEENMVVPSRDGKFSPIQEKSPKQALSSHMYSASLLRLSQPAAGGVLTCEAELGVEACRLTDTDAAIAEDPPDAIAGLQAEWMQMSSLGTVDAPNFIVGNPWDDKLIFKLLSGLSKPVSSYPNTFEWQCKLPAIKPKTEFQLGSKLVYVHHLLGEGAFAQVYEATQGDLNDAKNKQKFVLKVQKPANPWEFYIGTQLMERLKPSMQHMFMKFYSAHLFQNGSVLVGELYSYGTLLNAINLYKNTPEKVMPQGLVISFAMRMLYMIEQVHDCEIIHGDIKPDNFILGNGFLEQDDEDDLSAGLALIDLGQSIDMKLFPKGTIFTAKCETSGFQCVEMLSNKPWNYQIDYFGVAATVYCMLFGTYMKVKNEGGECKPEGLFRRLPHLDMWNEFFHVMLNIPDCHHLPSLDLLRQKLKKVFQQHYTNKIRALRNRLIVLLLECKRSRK
UniProt Q13470, sequence (whole entry, looked up): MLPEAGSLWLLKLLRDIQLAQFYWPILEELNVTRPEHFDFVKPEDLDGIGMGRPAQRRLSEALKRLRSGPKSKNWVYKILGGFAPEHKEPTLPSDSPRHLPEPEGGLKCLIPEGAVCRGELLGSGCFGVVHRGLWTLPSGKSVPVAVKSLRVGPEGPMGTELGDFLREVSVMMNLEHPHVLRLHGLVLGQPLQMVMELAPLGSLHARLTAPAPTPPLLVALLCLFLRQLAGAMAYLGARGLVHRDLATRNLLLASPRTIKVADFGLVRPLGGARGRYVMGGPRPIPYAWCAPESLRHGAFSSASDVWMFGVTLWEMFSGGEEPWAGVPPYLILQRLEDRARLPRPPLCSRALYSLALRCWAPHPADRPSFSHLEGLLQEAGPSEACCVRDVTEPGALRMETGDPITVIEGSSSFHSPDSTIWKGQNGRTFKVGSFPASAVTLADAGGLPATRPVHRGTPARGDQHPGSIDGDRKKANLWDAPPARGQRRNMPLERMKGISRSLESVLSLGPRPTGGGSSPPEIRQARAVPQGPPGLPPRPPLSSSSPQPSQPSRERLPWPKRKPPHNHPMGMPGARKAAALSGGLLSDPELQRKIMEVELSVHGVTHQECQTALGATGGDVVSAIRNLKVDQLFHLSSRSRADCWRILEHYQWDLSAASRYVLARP
UniProt P45983, sequence (whole entry, looked up): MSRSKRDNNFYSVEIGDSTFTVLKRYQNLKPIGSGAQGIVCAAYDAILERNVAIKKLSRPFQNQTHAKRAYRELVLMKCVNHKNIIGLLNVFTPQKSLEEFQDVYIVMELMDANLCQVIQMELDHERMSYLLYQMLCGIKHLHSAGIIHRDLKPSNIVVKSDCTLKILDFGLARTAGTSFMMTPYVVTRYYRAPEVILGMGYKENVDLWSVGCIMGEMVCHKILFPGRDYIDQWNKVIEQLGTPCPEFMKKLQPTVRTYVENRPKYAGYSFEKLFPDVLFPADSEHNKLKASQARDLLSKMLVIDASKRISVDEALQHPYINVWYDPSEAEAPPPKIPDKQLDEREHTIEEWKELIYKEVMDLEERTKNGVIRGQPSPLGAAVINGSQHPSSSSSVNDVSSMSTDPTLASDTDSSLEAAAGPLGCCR
UniProt P50613, sequence (whole entry, looked up): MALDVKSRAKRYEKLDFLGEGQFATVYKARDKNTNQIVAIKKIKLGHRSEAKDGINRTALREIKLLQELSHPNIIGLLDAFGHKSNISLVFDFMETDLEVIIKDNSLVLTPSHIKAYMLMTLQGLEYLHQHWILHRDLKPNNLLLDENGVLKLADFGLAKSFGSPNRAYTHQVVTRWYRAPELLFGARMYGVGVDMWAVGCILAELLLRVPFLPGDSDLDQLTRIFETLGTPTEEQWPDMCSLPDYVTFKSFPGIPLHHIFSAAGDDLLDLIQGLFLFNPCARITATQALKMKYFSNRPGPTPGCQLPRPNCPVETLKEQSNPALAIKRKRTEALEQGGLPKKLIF

Series 1
Target: Activin receptor type-1-like (ACVRL1, Homo sapiens, UniProt P37023)
UniProt P37023, sequence (whole entry, looked up): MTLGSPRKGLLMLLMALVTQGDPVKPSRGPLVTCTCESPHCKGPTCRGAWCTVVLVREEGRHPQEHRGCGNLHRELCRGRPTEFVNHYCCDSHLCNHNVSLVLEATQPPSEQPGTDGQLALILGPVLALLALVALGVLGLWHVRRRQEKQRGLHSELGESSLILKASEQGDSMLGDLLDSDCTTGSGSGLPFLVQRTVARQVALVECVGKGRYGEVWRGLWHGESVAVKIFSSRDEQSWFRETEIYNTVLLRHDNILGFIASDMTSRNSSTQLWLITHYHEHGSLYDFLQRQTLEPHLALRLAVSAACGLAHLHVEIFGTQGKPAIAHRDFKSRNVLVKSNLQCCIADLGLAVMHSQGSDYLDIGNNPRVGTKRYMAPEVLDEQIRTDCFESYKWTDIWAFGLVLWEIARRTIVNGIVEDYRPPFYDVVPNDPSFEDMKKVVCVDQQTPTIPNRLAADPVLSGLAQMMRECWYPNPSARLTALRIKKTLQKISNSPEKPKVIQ
Observed: enzyme activity
Mode: inhibitor
Tested at: 0.5 µM
Reference: control
Compound | remaining activity [%]
NC(=O)c1cccc(-c2cc(Nc3ccc(OC(F)(F)F)cc3)ncn2)c1 | 99.2
O=Nc1c(-c2c(O)[nH]c3ccccc23)[nH]c2ccccc12 | 108
C[C@@H](N)[C@H]1CC[C@H](C(=O)Nc2ccncc2)CC1 | 101
Clc1ccc(Nc2nnc(Cc3ccncc3)c3ccccc23)cc1 | 98.5
CC(C)n1cnc2c(Nc3cccc(Cl)c3)nc(NCCO)nc21 | 103
O=c1c(-c2ccc(F)cc2)c(-c2ccncc2)[nH]n1-c1ccc(Cl)cc1 | 88.1
CC(C)(C)c1nc2c3cc[nH]c(=O)c3c3cc(F)ccc3c2[nH]1 | 105
CC(C)N(CCC(=O)c1ccc2ccccc2c1)Cc1ccccc1 | 107
NC(=O)c1ccc(-c2nc(-c3ccc4c(c3)OCCO4)c(-c3ccccn3)[nH]2)cc1 | 107
COc1cc2c(Nc3ccc(Br)cc3F)ncnc2cc1OCC1CCN(C)CC1 | 104
O=C1NC(=O)/C(=C/c2ccc3c(c2)OC(F)(F)O3)S1 | 97.1
O=C(c1ccccc1)c1ccc(N2CCOCC2)cc1O | 105
N#C/C(=C(/N)SC1C=CC=CC1)c1cccc(C(O)c2ccncc2)c1 (stereo not shown) | 98.7
Nc1nc(Nc2ccc(S(N)(=O)=O)cc2)nn1C(=S)Nc1c(F)cccc1F | 15.1
FC(F)(F)c1ccc(/C=C/c2nc(COc3ccc(CCCCn4ccnn4)cc3)co2)cc1 | 103
c1cc(-c2cnn3cc(-c4ccc(OCCN5CCCCC5)cc4)cnc23)ccn1 | 21.6
N#CC(c1ccnc(NCCc2cccnc2)n1)c1nc2ccccc2s1 (stereo not shown) | 102
CNc1cc2c(Nc3cccc(Br)c3)ncnc2cn1 | 90.6
O=C1c2ccccc2-c2nc3nnnn3nc21 | 105
O=C(O)/C=C/c1cc(Br)c(Br)c(Br)c1Br | 103
CCN(CC)CCCCN1c2ccccc2Oc2ccc(Cl)cc21 | 102
CCCCc1c(-c2ccc(O)cc2)[nH]c2nccnc12 | 76.2

Series 2
Structure (SMILES): C=CC(=O)N1CCC([C@@H]2CCNc3c(C(N)=O)c(-c4ccc(Oc5ccccc5)cc4)nn32)CC1
Tested at: 1 µM
target | observed | mode | inhibition [%]
INSRR (Homo sapiens, UniProt P14616) | cell-free assay | – | 8
AAK1 (Homo sapiens, UniProt Q2M2I8) | enzyme activity | inhibitor | 1
PIP4K2B (Homo sapiens, UniProt P78356) | enzyme activity | inhibitor | 9
HASPIN (Homo sapiens, UniProt Q8TF76) | enzyme activity | inhibitor | 7
COQ8B (Homo sapiens, UniProt Q96D53) | enzyme activity | inhibitor | 0
FGFR1 (Homo sapiens, UniProt P11362) | cell-free assay | – | 27
BUB1 (Homo sapiens, UniProt O43683) | enzyme activity | inhibitor | 0
EGFR (Homo sapiens, UniProt P00533, del747-750/T751S) | cell-free assay | – | 75
KDR (Homo sapiens, UniProt P35968) | cell-free assay | – | 0
PRKAA2 (Homo sapiens, UniProt P54646) | cell-free assay | – | 0
DYRK2 (Homo sapiens, UniProt Q92630) | enzyme activity | inhibitor | 0
CDK11B (Homo sapiens, UniProt P21127) | enzyme activity | inhibitor | 27

Series 3
Structure (SMILES): Cn1cc(Cl)c2c(Oc3c(F)cc(Nc4cc(Cl)nc(N)n4)cc3F)ccnc21
Technique: competition with immobilised ligand
Tested at: 0.1 µM
target | observed | remaining binding [%]
KIT (Homo sapiens, UniProt P10721, T670I/V559D) | cell-free assay | 91
PIK3CA (Homo sapiens, UniProt P42336, H1047L) | cell-free assay | 83
SRPK2 (Homo sapiens, UniProt P78362) | cell-free assay | 78
ZAP70 (Homo sapiens, UniProt P43403) | cell-free assay | 100
TNNI3K (Homo sapiens, UniProt Q59H18) | cell-free assay | 78
MAPK8 (Homo sapiens, UniProt P45983) | cell-free assay | 76
DYRK2 (Homo sapiens, UniProt Q92630) | cell-free assay | 100
PIM2 (Homo sapiens, UniProt Q9P1W9) | cell-free assay | 88
EGFR (Homo sapiens, UniProt P00533, del747-752/P753S) | cell-free assay | 77
CHEK1 (Homo sapiens, UniProt O14757) | cell-free assay | 100
LATS2 (Homo sapiens, UniProt Q9NRM7) | cell-free assay | 91
KIT (Homo sapiens, UniProt P10721, V559D/V654A) | cell-free assay | 90
EPHA6 (Homo sapiens, UniProt Q9UF33) | cell-free assay | 100
CDK7 (Homo sapiens, UniProt P50613) | cell-free assay | 100
ALK (Homo sapiens, UniProt Q9UM73) | cell-free assay | 89
FLT3 (Homo sapiens, UniProt P36888, ITD) | cell-free assay | 100
TEC (Homo sapiens, UniProt P42680) | binding | 100
FLT3 (Homo sapiens, UniProt P36888, N841I) | cell-free assay | 96
FES (Homo sapiens, UniProt P07332) | cell-free assay | 100
BRSK2 (Homo sapiens, UniProt Q8IWQ3) | cell-free assay | 100
NLK (Homo sapiens, UniProt Q9UBE8) | cell-free assay | 100
NIM1K (Homo sapiens, UniProt Q8IY84) | cell-free assay | 93
CDK17 (Homo sapiens, UniProt Q00537) | cell-free assay | 100
SRPK1 (Homo sapiens, UniProt Q96SB4) | cell-free assay | 85
DCLK2 (Homo sapiens, UniProt Q8N568) | cell-free assay | 100

Series 4
SMILES: Cc1ccc(NC(=O)c2ccnc(C(F)(F)F)c2)cc1-c1cc(OCCO)nc(N2CCOCC2)c1
Observed: binding
Tested at: 1 µM
target | technique | remaining binding
PIK3C2B (Homo sapiens, UniProt O00750) | – | 100%
TLK1 (Homo sapiens, UniProt Q9UKI8) | – | 87%
MAPK15 (Homo sapiens, UniProt Q8TD08) | competition with immobilised ligand | 86%
IGF1R (Homo sapiens, UniProt P08069) | – | 100%
PRKG1 (Homo sapiens, UniProt Q13976) | – | 100%
ACVRL1 (Homo sapiens, UniProt P37023) | competition with immobilised ligand | 100%
Ribosomal protein S6 kinase alpha-4, N-terminal kinase domain (RPS6KA4, Homo sapiens, UniProt O75676) | competition with immobilised ligand | 100%
FLT3 (Homo sapiens, UniProt P36888) | competition with immobilised ligand | 97%
Insulin receptor (INSR, Homo sapiens, UniProt P06213) | – | 81%
BTK (Homo sapiens, UniProt Q06187) | competition with immobilised ligand | 87%
EGFR (Homo sapiens, UniProt P00533, L858R) | – | 78%
PIP4K2C (Homo sapiens, UniProt Q8TBX8) | – | 100%
TGFBR1 (Homo sapiens, UniProt P36897) | competition with immobilised ligand | 100%
FLT3 (Homo sapiens, UniProt P36888, K663Q) | – | 98%
BUB1 (Homo sapiens, UniProt O43683) | – | 100%
EPHA3 (Homo sapiens, UniProt P29320) | competition with immobilised ligand | 97%
PIK3CD (Homo sapiens, UniProt O00329) | – | 100%
WEE1 (Homo sapiens, UniProt P30291) | competition with immobilised ligand | 88%
TNK1 (Homo sapiens, UniProt Q13470) | competition with immobilised ligand | 100%
NIM1K (Homo sapiens, UniProt Q8IY84) | – | 84%

Excerpt of the above (series 3):
target | observed | remaining binding [%]
PIM2 (Homo sapiens, UniProt Q9P1W9) | cell-free assay | 88
EGFR (Homo sapiens, UniProt P00533, del747-752/P753S) | cell-free assay | 77
CHEK1 (Homo sapiens, UniProt O14757) | cell-free assay | 100
LATS2 (Homo sapiens, UniProt Q9NRM7) | cell-free assay | 91
KIT (Homo sapiens, UniProt P10721, V559D/V654A) | cell-free assay | 90
EPHA6 (Homo sapiens, UniProt Q9UF33) | cell-free assay | 100
CDK7 (Homo sapiens, UniProt P50613) | cell-free assay | 100
